Measured values gathered from unrelated publications.
Parts stem from different laboratories: compare values within a part only. Substitutions count along the parent as printed.

Series 1 — technique: RNA Bind-n-Seq; form: RNA; sample: in vitro; concentration: 365 nM; baseline: no-protein control; direction: higher = stronger binding; measurement: RBNS enrichment (R)
Target: RNA binding protein fox-1 homolog 2, RRM domain, GST-SBP tag (RBFOX2, Homo sapiens, UniProt O43251-10, residues 100-194)
Notes: natural RNA segment, single round, ends assumed
Constant ends, left off below: GGGAGUUCUACAGUCCGACGAUC … UGGAAUUCUCGGGUGCCAA
Target sequence (chain): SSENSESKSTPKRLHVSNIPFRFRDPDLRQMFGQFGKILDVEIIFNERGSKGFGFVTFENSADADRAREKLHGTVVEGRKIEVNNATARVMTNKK
AUCCAACUAAAAAUUACGCUAUCUAGAAUUGUACCAACCAAAAUCUCGUAUUGGCAGAUCUUGACAGGCUGGACCUGCAAGAUGUGGCUUGAAUUUUAACCAUUUAUUAC: 0.403
CUGCAAUGGCCCUACCAAAAGCCAUGUUGCAUAUCCGUUGUAAGCACGUGCCCUGUGCCCUGUCCCCAUUCCUUAUGCCCUAGGAGGCCAAGCUGGUGUCUCUAGGAGGG: 0.407
GCGAAGCUUGGGAUCUGGCCAAGUUGGACUUUGAUCCUUUGGGCAGAUGUCCCAUUGCUCCCUGGAGCCUGUCAUGCCUGUUGGGGAUCAGGCAGCCUCCUGAUGCCAGA: 0.271
UAGUCAGAUGCUUACAACUAUUUAUAAUGCAUCAAUUUGAACUUAGAAGGUAGGAGAUCAGAUCAUAUGUGGGAAAAUGUAAAAGCAGGGAUAUCAGUGGGCAUUAGAAU: 0.902
UUCUGGUAUUCUGGGUUCAAAAGUAUGACUUGAGAGUGUUGCUCUGGUAUUCUGAGAGUUGCUCUGUAUUCUGGGUUCUGAAGAUUAUUUGAAAAAUAACUCCUACUACA: 0.412
UUUCCCCAGAGAUAAAGGCUGCCAUUUUGGGGGUCUGUACUUAUGGCCUGAAAAUAUUUGUGAUCCAUAACUCUACACAGCCUUUACUCAUACUAUUAGGCACACUUUCC: 0.455
UUUCCAGACUUUUUUUUAAAAACACAUCGUGGGUUUUUUGAGGCUCCAACCUGAUUAGUGCAUGGUCAGCCCUCAAUGAAGGCUGAGGCAUCUCUGACUGAGGUGUUUUU: 0.785
AAUUCUUGACAGUCUGUGUCCCAUCAGUCACUGCAUUUUUCUUUUUCCAAAUACAUCCUGUUGGAUACUGAAUAGAUCAUAGAUAUUGUAGACUGAGAUCUGGGACUGUG: 0.582
GGUGCGAGGUGUCGGUUCCCUCCUGUCCUGUGGUCCUGCCCCUGGGAUGGGGGUGCCUUGCUCCAGCGGGCUGCAGAUCCCAGCACUGGCGUGACUGACGGCUGAGGCCU: 0.577
CAAAAGUGAAUCGGGGUGCGGAGAGUGGGAACCUUUUGAAUUUAUGAUUGUCACAGAGAUGGUAGAAAUUAUGAUCUGACUGGAAAACAAUCCUGUAUCCCCUCCCAAAG: 0.28
UGGGGCUCAAGCCUGGUGCACUUAGUAUAGAAGAGCUAACGUACUCAGGCUUGUGCCACGGGUGAGCACUGAGGCCCCAGGUGUCCUCCCUCCCCCACUGUCUGGGACAC: 0.419
ACAGUGCUCCUACUCUAUCCACAUUAAGUAGCACUUUUGUGGUAGAACUGAUUCUUAAGGCAGGCCUGAAAGGCCAUUACUAAUAGAAACACAGCCUUUCCAAUCCUCUG: 0.331

Series 2 — target: CEP164, C-terminal peptide (human); technique: DHFR complementation, deep sequencing; sample: yeast; baseline: wild type; direction: higher = weaker binding; measurement: binding free energy change
Notes: single substitutions, model-inferred values
Starting sequence: PDZK1, PDZ domain 2 (human); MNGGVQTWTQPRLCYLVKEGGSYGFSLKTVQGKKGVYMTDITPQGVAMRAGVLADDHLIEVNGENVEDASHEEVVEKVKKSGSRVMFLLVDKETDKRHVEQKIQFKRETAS; partner HNRVKVYRF
T94A: -0.11 kcal/mol
V85S: 1.67 kcal/mol
E64T: 0.0391 kcal/mol
G51E: 1.53 kcal/mol
K106G: -0.202 kcal/mol
V99T: -0.179 kcal/mol
M48K: 0.115 kcal/mol
V99K: -0.238 kcal/mol
R49H: 0.498 kcal/mol
K34I: 0.188 kcal/mol
A110C: -0.138 kcal/mol
E67N: 0.479 kcal/mol
Q44G: -0.283 kcal/mol
T39H: -0.122 kcal/mol

Series 3 — technique: protein-binding microarray; form: double-stranded DNA, one strand shown; sample: in vitro; concentration: not given; direction: higher = stronger binding; measurement: E-score
Target: Protein max, full length (MAX, Homo sapiens, UniProt P61244-2, residues 1-151)
Notes: k-mer, scored over probes, only values ≥0.25
GTGCACAC: 0.286
ACGCCCGC: 0.293
CACACGGG: 0.335
CATGGACA: 0.323
ATGCTCAC: 0.258
CATGGAGC: 0.265
CCGTGTTA: 0.271
ACGTGTCC: 0.418
ACCGCGCG: 0.292
CACGCGCG: 0.439
GATCACAC: 0.266
ATGCATGC: 0.403
CGTGATCA: 0.332
ATGCAGGC: 0.271
AAAGCACA: 0.312
CATGCGCC: 0.439
CGTGTAAC: 0.326
ACACGTTG: 0.444

Series 4 — target: CCNE2, cyclin fold, Cln2 fusion (human); technique: yeast growth competition, sequencing; sample: yeast; notes: weak parent motif; baseline: not given; direction: higher = stronger binding; measurement: normalised enrichment score
Starting sequence: DBF4B docking peptide (human); LGYLYLLLTQSLW; partner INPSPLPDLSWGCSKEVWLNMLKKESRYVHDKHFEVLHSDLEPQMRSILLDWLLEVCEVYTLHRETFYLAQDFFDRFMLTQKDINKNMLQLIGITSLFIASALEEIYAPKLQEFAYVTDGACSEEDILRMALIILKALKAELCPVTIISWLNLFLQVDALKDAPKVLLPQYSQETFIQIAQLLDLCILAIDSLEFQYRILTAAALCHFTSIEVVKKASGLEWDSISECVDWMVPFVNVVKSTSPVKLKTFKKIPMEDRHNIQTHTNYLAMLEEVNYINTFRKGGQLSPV
L1A: 1.45
Q10A: 1.18
L6A: 0.425
S11A: 0.777
Y5A: 1.31
L8A: 1.04
L4A: 1.01

Series 5 — technique: DHFR PCA, deep sequencing; sample: yeast; added: (+)-ABA 0.39 µM; baseline: wild-type fitted maximum; direction: higher = stronger binding; measurement: relative binding score
Target: ABI1, truncated, D143A, DHFR fusion (Arabidopsis thaliana)
Notes: methotrexate growth selection, single substitutions
Starting sequence: PYL1, truncated, DHFR fusion (Arabidopsis thaliana); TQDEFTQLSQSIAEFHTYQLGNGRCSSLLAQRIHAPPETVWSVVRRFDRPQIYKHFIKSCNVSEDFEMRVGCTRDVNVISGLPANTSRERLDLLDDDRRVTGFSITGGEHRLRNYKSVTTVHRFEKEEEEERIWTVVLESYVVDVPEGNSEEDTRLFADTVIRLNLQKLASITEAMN
F103C: -8.63%
D3Q: 48.4%
K58S: 20.9%
F66N: 4.35%
G21L: 15.6%
T101K: -1.78%
D92I: -5.53%
R163H: 3.82%
T1Q: 36%
T101G: -1.8%
F56L: 15.5%
Q7C: 37.1%
R98M: 16.2%
Q10V: 17%
Q19E: 58.3%
N165S: 8.37%
L93Y: 27.9%

Series 6 — technique: protein-binding microarray; form: double-stranded DNA, one strand shown; sample: in vitro; concentration: 250 nM; notes: 60-bp whole probe; added: salmon DNA 0.4 mg/ml; baseline: random background probes; direction: higher = stronger binding; measurement: log fluorescence; constant ends, left off below: GCCTAGCAC … GTCTTGATTCGCTTGACGCTGCTG
Target: Interferon regulatory factor 5, full length, phosphomimetic (IRF5, Homo sapiens, UniProt Q13568-2, residues 1-514, K96S/S451D/S453D/S456D/S462D)
CTATAAAGCATCAGGAAAGCGTGCTAG: -0.206 z-score
AAAACTAGGGCATTTAGAAAAGTGCTA: 0.0734 z-score
TGCTTCTAACAGAGGAGGTTGTGCTAG: -0.0574 z-score
TTAGATTCCAGTTTAGATTAGTGCTAG: 0.664 z-score
CTGCATTACAGCTATTTTTAGGTGCTA: 0.338 z-score
GACGGACTGGGGACTGGAGACGTGCTA: -0.76 z-score
TTAGATTTCGGGACTAGATTAGTGCTA: 2.86 z-score
GGTGATTTCAGTTTTCTTTTGTGCTAG: 2.65 z-score
TTCGATATCAGTCTCGATTAGTGCTAG: 3.06 z-score
GACGGACTGGGGTTTCTGGACGTGCTA: -0.464 z-score
TTAGTTATCGGTCTCGGTTAGTGCTAG: 6.75 z-score
GTAGAAAATTCATGTTATAAGTGCTAG: 0.51 z-score
GACGGTTTCGACTATAGGGACGTGCTA: 5.86 z-score
GACGATTTCGGTTTCGAGACGTGCTAG: 9.01 z-score
TGCTTTCTCTTTCATTGCTGCGTGCTA: 6.72 z-score
GACGATTTCCTTATCCTGACGTGCTAG: 0.247 z-score
TTGCTTCCCAATTCTCTTTTCGTGCTA: 1.18 z-score
GGCGGTTTCGGGTTTCGGGACGTGCTA: 8.42 z-score
TGAGAACTGGGGTATCGATTAGTGCTA: 2.05 z-score
ATGAAATGCCACACACACACGTGCTAG: 0.0474 z-score
TTAGATATCAGTTTTGATTAGTGCTAG: 2.3 z-score
CAAGGCAAGAAACAAACAACGTGCTAG: 0.212 z-score
CTTTAGAGCAAGAACAGCCTGTGCTAG: -0.364 z-score
